Measurements pooled from the literature.
Each numbered part is a random draw from the data of one study; scales do not carry over between parts. Substitutions count along the parent as printed.

Sample 1
Target: ABI1, truncated, D143A, DHFR fusion (Arabidopsis thaliana)
Technique: DHFR PCA, deep sequencing
Medium: yeast
Setting: methotrexate growth selection, single substitutions
Together with: (+)-ABA 710 µM
Reference: wild-type fitted maximum
Reading: higher = stronger binding
Parent: PYL1, truncated, DHFR fusion (Arabidopsis thaliana); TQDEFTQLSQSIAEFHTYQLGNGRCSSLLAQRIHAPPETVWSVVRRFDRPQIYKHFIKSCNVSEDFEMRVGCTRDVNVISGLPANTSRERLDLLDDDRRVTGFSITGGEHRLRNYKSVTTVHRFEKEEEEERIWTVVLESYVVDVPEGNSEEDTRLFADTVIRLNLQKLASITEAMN
Variant	relative binding score
I79V	106%
V40Y	-10.6%
C72A	98.3%
I162W	-14.1%
L82W	82.5%
R45H	68.6%
P83L	13.2%
N177R	82.3%

Sample 2
Target: Interferon regulatory factor 5, full length, phosphomimetic (IRF5, Homo sapiens, UniProt Q13568-2, residues 1-514, S451D/S453D/S456D/S462D)
Technique: protein-binding microarray
Molecule type: double-stranded DNA, one strand shown
Medium: in vitro
Concentration: 940 nM top
Setting: 60-bp whole probe
Together with: salmon DNA 0.4 mg/ml
Reference: random background probes
Reading: higher = stronger binding
Shared flanks, not repeated: GCCTAGCAC … GTCTTGATTCGCTTGACGCTGCTG
Oligonucleotide	fitted relative affinity [z-score]
TTAGGTCTCATTATCCTTTAGTGCTAG	1.94
TCAGGTTTCGGGTTTCGGTTAGTGCTA	10.1
TTAGGACTGCCACTGCTTTAGTGCTAG	-0.327
TCATGTTTCTCAACCATACTGTGCTAG	1.03
TTAGGTTTCGGGTCTGGGTTAGTGCTA	10.4
TTAGATATCGGGTATAGATTAGTGCTA	0.238
TCATTTTTCTAGTCCAGACTGTGCTAG	0.626
AATGTTTTGTTTTTCATTATGTGCTAG	1.15
TTAGATCTCAGTAACGATTAGTGCTAG	0.265
TACGGTATCCTTATCCTGACGTGCTAG	0.351

Sample 3
Target: CCND3, cyclin fold, Cln2 fusion (human)
Technique: yeast growth competition, sequencing
Medium: yeast
Setting: weak parent motif
Reference: not given
Reading: higher = stronger binding
Parent: CDKN1B docking peptide (human); PSACRNLFGPVDH
Variant	normalised enrichment score
PSACRNAFGPVDH [L7A]	0.121
PSACRNLFGPVGH [D12G]	0.148
PSACRGLFGPVDH [N6G]	0.0929
ESACRNLFGPVDH [P1E]	0.0744
PSQCRNLFGPVDH [A3Q]	0.143
PSACRNLQGPVDH [F8Q]	0.152

Single results of other studies
Molecule	target	assay	system	setting	how to read	measurement	value
PhoQ, residues 284 288 289 292 302 303 TTCLQL	PhoP, residues 12 14 15 18 19 DLLYY (Escherichia coli, UniProt P23836)	Sort-seq, measured: YFP reporter	E. coli	PhoQ-PhoP variant library, together with: 10 µM Mg2+	reference: high Mg2+ state, higher = stronger signaling	fold induction	0.81

Some of these lines once more (single results of other studies):
Molecule	target	assay	system	setting	how to read	measurement	value
PhoQ, residues 284 288 289 292 302 303 TTCLQL	PhoP, residues 12 14 15 18 19 DLLYY (Escherichia coli, UniProt P23836)	Sort-seq, measured: YFP reporter	E. coli	PhoQ-PhoP variant library, together with: 10 µM Mg2+	reference: high Mg2+ state, higher = stronger signaling	fold induction	0.81
